Results pooled from the literature.
Each line is one published result; not all experiments were run side by side. Numbers after ± are the reported error.
Organism: Leishmania donovani

Structure (SMILES) | test | test system | conditions | scale | endpoint | value
O=C1NC(=S)S/C1=C\c1cn(Cc2cccc(Cl)c2)c2ccc([N+](=O)[O-])cc12 | parasite growth, resazurin | THP-1 | 72 h, intracellular, amastigote |  | IC50 | 2.02 µM
C[C@@H]1N[C@H](CCCCCCCCCCc2cc(CCCCCCCCCC[C@@H]3CC[C@H](O)[C@@H](C)N3)c3[n+](c2)CCC3)CC[C@H]1O | parasite growth, resazurin |  | 72 h, promastigote |  | IC50 | 0.91 mg/L
C#CCn1cc(/C=C2\SC(=S)NC2=O)c2cc([N+](=O)[O-])ccc21 | parasite growth, resazurin | THP-1 | 24 h, intracellular, amastigote |  | IC50 | > 10 µM
CCCCCCCCCCCCCCCCOP(=O)([O-])OCC[N+](C)(C)C |  | human PBMC, DD8 |  |  | EC50 | 0.51 µM
N=C(N)c1ccc(OCCCCCOc2ccc(C(=N)N)cc2)cc1 | parasite growth | THP-1 | intracellular, amastigote |  | IC90 | 6.87 mg/L
Cc1ccc(Cn2cc(/C=N/N3C(=O)CSC3=S)c3cc([N+](=O)[O-])ccc32)cc1 | parasite growth, resazurin | THP-1 | 24 h, intracellular, amastigote |  | IC50 | > 10 µM
C[C@@H]1[C@H](O)[C@@H](C)/C=C/C=C/C=C/C=C/C=C/C=C/C=C/[C@H](O[C@@H]2O[C@H](C)[C@@H](O)[C@H](N)[C@@H]2O)C[C@@H]2O[C@](O)(C[C@@H](O)C[C@@H](O)[C@H](O)CC[C@@H](O)C[C@@H](O)CC(=O)O[C@H]1C)C[C@H](O)[C@H]2C(=O)O | parasite growth | THP-1 | intracellular, amastigote |  | IC90 | 0.441 µM
O=[N+]([O-])c1ccc2[nH]ccc2c1 | parasite growth, resazurin | THP-1 | 72 h, intracellular, amastigote |  | IC50 | > 10 µM
CSc1ccc(OCc2ncc([N+](=O)[O-])n2C)cc1 |  | intracellular amastigotes in macrophages, LdBOB wild type |  |  | EC50 | > 50 µM
C[C@@H](c1ncncc1F)[C@](O)(Cn1cncn1)c1ccc(F)cc1F | LC-MS/MS | LV82 promastigote | 50 µM, 24 h, with fecosterol, 4-methylzymosterol, unit not given | reference: DMSO | episterol level | 0.18 ± 0.06
Cn1c([N+](=O)[O-])cnc1COc1ccc([S+](C)[O-])cc1 (stereo not drawn) | parasite growth | mouse peritoneal macrophages, LV9 | intracellular amastigotes |  | EC99 | 41.2 µM
Clc1ccccc1C(c1ccccc1)(c1ccccc1)n1ccnc1 | LC-MS/MS | LV82 promastigote | 20 µM, 24 h, with episterol, 4-methylzymosterol, unit not given | reference: DMSO | fecosterol level | 0.025 ± 0.013
C#CCn1cc(/C=N/N2C(=O)CSC2=S)c2cc([N+](=O)[O-])ccc21 | parasite growth, resazurin | THP-1 | 24 h, intracellular, amastigote |  | IC50 | > 10 µM
N=C(N)c1ccc(OCCCCCOc2ccc(C(=N)N)cc2)cc1 | viability | axenic amastigotes | 72 h |  | IC50 | 1 mg/L
Cn1c([N+](=O)[O-])cnc1COc1ccc(S(C)(=O)=O)cc1 | parasite growth | mouse Macrophage | 72 h, intracellular, amastigote |  | EC50 | 5.3 µM
O=C1CSC(=S)N1/N=C/c1c[nH]c2ccc([N+](=O)[O-])cc12 | parasite growth, resazurin | THP-1 | 72 h, intracellular, amastigote |  | IC50 | > 10 µM
CCCCCCCCCCCCCCCCOP(=O)([O-])OCC[N+](C)(C)C | parasite growth | mouse peritoneal macrophages, LV9 | intracellular amastigotes |  | EC99 | 52.2 µM
c1ccc2c(NCCCn3ccnc3)ncnc2c1 |  | J774.2 macrophages | IC25, 240 h, day 10 | reference: untreated | infection inhibition | 65%

For quick reference, copied from above:
Structure (SMILES) | test | test system | conditions | scale | endpoint | value
N=C(N)c1ccc(OCCCCCOc2ccc(C(=N)N)cc2)cc1 | parasite growth | THP-1 | intracellular, amastigote |  | IC90 | 6.87 mg/L
